Results pooled from the literature.
Lines come from different studies, so protocols differ. ± marks the error that the study gave.

With `C[C@H](NC(=O)CNC(=O)[C@H](CCC(=O)O)NC(=O)[C@H](CCC(=O)O)NC(=O)[C@H](CC(=O)O)NC(=O)[C@@H]1CCCN1C(=O)[C@H](Cc1ccccc1)NC(=O)[C@H](CS)NC(=O)[C@H](Cc1ccc(O)cc1)NC(=O)CCCNC(=O)CNC(=O)CNC(=O)[C@@H](C)NC(=O)CN)C(=O)N[C@@H](CS)C(=O)N[C@@H](Cc1ccc(O)cc1)C(N)=O` [technetium-99m labelled] the radiochemical purity was 93.25 ± 0.06% (paper chromatography; sealed vial; 6 h, room temperature).
`N=C(N)NCCC[C@@H]1NC(=O)[C@H](CCCCNC(=O)CC[C@H](NC(=O)CC[C@H](NC(=O)CN2CCN(CC(=O)O)CCN(CC(=O)O)CCN(CC(=O)O)CC2)C(=O)N[C@@H](CCC(=O)NCCCC[C@@H]2NC(=O)[C@@H](Cc3ccccc3)NC(=O)[C@H](CC(=O)O)NC(=O)CNC(=O)[C@H](CCCNC(=N)N)NC2=O)C(=O)NCCCC[C@@H]2NC(=O)[C@@H](Cc3ccccc3)NC(=O)[C@H](CC(=O)O)NC(=O)CNC(=O)[C@H](CCCNC(=N)N)NC2=O)C(=O)NCCCC[C@@H]2NC(=O)[C@@H](Cc3ccccc3)NC(=O)[C@H](CC(=O)O)NC(=O)CNC(=O)[C@H](CCCNC(=N)N)NC2=O)NC(=O)[C@@H](Cc2ccccc2)NC(=O)[C@H](CC(=O)O)NC(=O)CNC1=O` [indium-111 labelled] gave a tissue uptake of 0.8 ± 0.18 %ID/g (female athymic nu/nu mice, blood; intravenous, 0.5 h).
The tissue uptake of `CCCC[C@H](NC(=O)CNC(=O)CNC(=O)CN1CCN(CC(=O)O)CCN(CC(=O)O)CC1)C(=O)N[C@H]1CC(=O)NCCCC[C@@H](C(N)=O)NC(=O)[C@H](Cc2c[nH]c3ccccc23)NC(=O)[C@H](CCCNC(=N)N)NC(=O)[C@@H](Cc2ccccc2)NC(=O)[C@H](Cc2c[nH]cn2)NC1=O` [technetium-99m labelled] is reported as 0.82 ± 0.41 %ID/g (C57 mouse, bone; iv, 0.037 MBq, 0.5 h).
`Cc1cc(-c2ccc(NC(=O)[C@H](CCCCNC(=O)CCOCCOCCC(=O)N[C@H](Cc3ccccc3)C(=O)N[C@H]3CSSC[C@@H](C(=O)N[C@H](C(=O)O)[C@@H](C)O)NC(=O)[C@H]([C@@H](C)O)NC(=O)[C@H](CCCCN)NC(=O)[C@@H](Cc4c[nH]c5ccccc45)NC(=O)[C@H](Cc4ccc(O)cc4)NC3=O)NC(=O)CN3CCN(CC(=O)O)CCN(CC(=O)O)CCN(CC(=O)O)CC3)c(C)c2)ccc1N=Nc1ccc2c(S(=O)(=O)O)cc(S(=O)(=O)O)c(N)c2c1O` [gallium-68 labelled] gave a radiochemical purity of > 99% (radio-HPLC; saline, glutathione solution, urine; 2 h).
With `COc1ccc2cc([C@H](C)C(=O)N[C@H](Cc3ccccc3)C(=O)N[C@H](Cc3ccccc3)C(=O)O)ccc2c1` the nanofiber width was 54 ± 7 nm (TEM; hydrogel 0.8 wt%).
For `CCCC[C@H](NC(=O)CCCCCCCNC(=O)CN1CCN(CC(=O)O)CCN(CC(=O)O)CC1)C(=O)N[C@H]1CC(=O)NCCCC[C@@H](C(N)=O)NC(=O)[C@H](Cc2c[nH]c3ccccc23)NC(=O)[C@H](CCCNC(=N)N)NC(=O)[C@@H](Cc2ccccc2)NC(=O)[C@H](Cc2c[nH]cn2)NC1=O` [copper-64 labelled], the tissue uptake was 1.69 ± 0.57 %ID/g (C57 mice, stomach; intravenous, 0.37 MBq, 2 h).
For `CC(C)C[C@@H](NC(=O)[C@@H](CC(C)C)NC(=O)[C@@H](CC(=O)O)NC(=O)[C@@H](CC(C)C)NC(=O)[C@@H](CC(C)C)NC(=O)[C@@H](CC(C)C)NC(=O)[C@H](NC(=O)[C@@H](CC(=O)O)NC(=O)[C@H](NC(=O)[C@H]1CCCN1C(=O)[C@@H](Cc1ccccc1)NC(=O)[C@@H](CC(C)C)NC(=O)[C@@H](CC(C)C)NC(=O)[C@@H](CC(=O)O)NC(=O)[C@@H](CC(C)C)NC(=O)[C@@H](Cc1ccc(O)cc1)NC(=O)[C@@H](C)NC(=O)[C@@H](CCCNC(=N)N)NC(=O)[C@@H](Cc1c[nH]c2ccccc12)NC(=O)[C@H]1CCCN1C(=O)[C@@H](CC(N)=O)NC(=O)[C@@H](CCC(N)=O)NC(=O)[C@@H](CC(=O)O)NC(=O)[C@@H](CC(=O)O)NC(=O)[C@@H](CSC1CC(=O)N(CCNC(=O)CN2CCN(CC(=O)O)CCN(CC(=O)O)CC2)C1=O)NC(=O)[C@@H](C)N)[C@H](C)O)[C@H](C)O)C(=O)N[C@H](Cc1c[nH]c2ccccc12)C(=O)O` (some centres unmarked) [fluorine-18 labelled], the tumour-to-muscle ratio was 4.7 ± 0.9 (male nude mice, LNCaP xenograft; intravenous, 4 h; reference: tumour over muscle).
With `N=C(N)NCCC[C@@H]1NC(=O)[C@H](CCCCNC(=O)CNC(=O)CNC(=O)CNC(=O)CC[C@H](NC(=O)CNC(=O)CNC(=O)CNC(=O)CC[C@H](NC(=O)CN2CCN(CC(=O)O)CCN(CC(=O)O)CCN(CC(=O)O)CC2)C(=O)NCC(=O)NCC(=O)NCC(=O)N[C@@H](CCC(=O)NCC(=O)NCC(=O)NCC(=O)NCCCC[C@@H]2NC(=O)[C@@H](Cc3ccccc3)NC(=O)[C@H](CC(=O)O)NC(=O)CNC(=O)[C@H](CCCNC(=N)N)NC2=O)C(=O)NCC(=O)NCC(=O)NCC(=O)NCCCC[C@@H]2NC(=O)[C@@H](Cc3ccccc3)NC(=O)[C@H](CC(=O)O)NC(=O)CNC(=O)[C@H](CCCNC(=N)N)NC2=O)C(=O)NCC(=O)NCC(=O)NCC(=O)NCCCC[C@@H]2NC(=O)[C@@H](Cc3ccccc3)NC(=O)[C@H](CC(=O)O)NC(=O)CNC(=O)[C@H](CCCNC(=N)N)NC2=O)NC(=O)[C@@H](Cc2ccccc2)NC(=O)[C@H](CC(=O)O)NC(=O)CNC1=O` [indium-111 labelled] the tissue uptake was 10.9 ± 1.94 %ID/g (female athymic nu/nu mice, intestine; intravenous, 24 h).
For `CCCC[C@H](NC(=O)CNC(=O)CNC(=O)CN1CCN(CC(=O)O)CCN(CC(=O)O)CCN(CC(=O)O)CC1)C(=O)N[C@H]1CC(=O)NCCCC[C@@H](C(N)=O)NC(=O)[C@H](Cc2c[nH]c3ccccc23)NC(=O)[C@H](CCCNC(=N)N)NC(=O)[C@@H](Cc2ccccc2)NC(=O)[C@H](Cc2c[nH]cn2)NC1=O` [lutetium-177 labelled], the tissue uptake was 0.16 ± 0.07 %ID/g (C57 mouse, female, heart; intravenous, 0.037 MBq, 2 h).
The tissue uptake of `N=C(N)NCCC[C@@H]1NC(=O)[C@H](CCCCNC(=O)CNC(=O)CNC(=O)CNC(=O)CC[C@H](NC(=O)CNC(=O)CNC(=O)CNC(=O)CN2CCN(CC(=O)O)CCN(CC(=O)O)CCN(CC(=O)O)CC2)C(=O)NCC(=O)NCC(=O)NCC(=O)NCCCC[C@@H]2NC(=O)[C@@H](Cc3ccccc3)NC(=O)[C@H](CC(=O)O)NC(=O)CNC(=O)[C@H](CCCNC(=N)N)NC2=O)NC(=O)[C@@H](Cc2ccccc2)NC(=O)[C@H](CC(=O)O)NC(=O)CNC1=O` [indium-111 labelled] is reported as 6.72 ± 2.06 %ID/g (female athymic nu/nu mice, U87MG tumour; intravenous, 111 kBq, 4 h).
The radiochemical purity of `CC(=O)N[C@@H](CCCCNC(=S)Nc1ccc(CC2CN(CC(=O)O)CCN(CC(=O)O)CCN2CC(=O)O)cc1)C(=O)N1CCC[C@H]1C(=O)N(C)[C@@H](CCCNC(=N)N)C(=O)N[C@@H](CCCNC(=N)N)C(=O)N1CCC[C@H]1C(=O)N[C@@H](Cc1ccc(O)cc1)C(=O)N[C@H](C(=O)N[C@@H](CC(C)C)C(=O)O)C(C)(C)C` (some centres unmarked) [copper-64 labelled] is reported as 93.7% (radio-HPLC; PBS; 4 h, pH 7.5).

Excerpt of the above:
With `N=C(N)NCCC[C@@H]1NC(=O)[C@H](CCCCNC(=O)CNC(=O)CNC(=O)CNC(=O)CC[C@H](NC(=O)CNC(=O)CNC(=O)CNC(=O)CC[C@H](NC(=O)CN2CCN(CC(=O)O)CCN(CC(=O)O)CCN(CC(=O)O)CC2)C(=O)NCC(=O)NCC(=O)NCC(=O)N[C@@H](CCC(=O)NCC(=O)NCC(=O)NCC(=O)NCCCC[C@@H]2NC(=O)[C@@H](Cc3ccccc3)NC(=O)[C@H](CC(=O)O)NC(=O)CNC(=O)[C@H](CCCNC(=N)N)NC2=O)C(=O)NCC(=O)NCC(=O)NCC(=O)NCCCC[C@@H]2NC(=O)[C@@H](Cc3ccccc3)NC(=O)[C@H](CC(=O)O)NC(=O)CNC(=O)[C@H](CCCNC(=N)N)NC2=O)C(=O)NCC(=O)NCC(=O)NCC(=O)NCCCC[C@@H]2NC(=O)[C@@H](Cc3ccccc3)NC(=O)[C@H](CC(=O)O)NC(=O)CNC(=O)[C@H](CCCNC(=N)N)NC2=O)NC(=O)[C@@H](Cc2ccccc2)NC(=O)[C@H](CC(=O)O)NC(=O)CNC1=O` [indium-111 labelled] the tissue uptake was 10.9 ± 1.94 %ID/g (female athymic nu/nu mice, intestine; intravenous, 24 h).
For `CCCC[C@H](NC(=O)CNC(=O)CNC(=O)CN1CCN(CC(=O)O)CCN(CC(=O)O)CCN(CC(=O)O)CC1)C(=O)N[C@H]1CC(=O)NCCCC[C@@H](C(N)=O)NC(=O)[C@H](Cc2c[nH]c3ccccc23)NC(=O)[C@H](CCCNC(=N)N)NC(=O)[C@@H](Cc2ccccc2)NC(=O)[C@H](Cc2c[nH]cn2)NC1=O` [lutetium-177 labelled], the tissue uptake was 0.16 ± 0.07 %ID/g (C57 mouse, female, heart; intravenous, 0.037 MBq, 2 h).
